Published values pooled from the literature.
Protocols differ between the studies behind these lines. Numbers after ± are the reported error.

CC[C@H](C)[C@@H](C(=O)N[C@@H](CC(C)C)C(=O)N[C@@H](CO)C(=O)N[C@@H](CO)C(=O)N[C@H](C(=O)N[C@@H](CCC(=O)O)C(=O)N[C@H](C(=O)NCC(=O)N[C@@H](CO)C(=O)N[C@@H](CC(N)=O)C(=O)N[C@H](C(=O)N1C[C@H](O)C[C@H]1C(N)=O)[C@@H](C)O)C(C)C)[C@@H](C)O)N(C)C(=O)[C@H](C)NC(=O)CN(C)C(=O)[C@H](Cc1ccccc1)NC(=O)[C@H](CO)NC(=O)[C@H](CO)NC(=O)[C@H](CCCNC(=N)N)NC(=O)[C@H](CCC(N)=O)NC(=O)[C@H](CC(C)C)NC(=O)[C@H](Cc1ccccc1)NC(=O)[C@H](CCCC(=O)O)NC(=O)[C@H](C)NC(=O)[C@H](CC(C)C)NC(=O)[C@H](CCCNC(=N)N)NC(=O)[C@H](CCC(=O)O)NC(=O)[C@@H](NC(=O)[C@H](C)NC(=O)[C@@H]1CSSC[C@H](NC(=O)[C@H](CCCNC(=N)N)NC(=O)CC[C@H](NC(=O)CCCCCCCCCCCCCCCCCCC(=O)O)C(=O)O)C(=O)NCC(=O)N[C@@H]([C@@H](C)O)C(=O)N[C@@H](C)C(=O)N[C@@H]([C@@H](C)O)C(=O)N1)[C@@H](C)O
remaining main peak (RP-HPLC; water; 7 days, pH 6.0, 40 °C): 97 area %

O=C(NC1CCC(F)(F)CC1)C(c1cncnc1)N(C(=O)C(F)Cl)c1ccc(OC(F)(F)F)cc1 (stereo not shown)
remaining compound (human liver microsomes; concentration not given, 1 h, pH 7.4): 90.6%

O=Cc1ccc(-c2cn([C@@H]3O[C@H](COP(=O)(O)OP(=O)(O)O[C@H]4O[C@H](CO)[C@H](O)[C@H](O)[C@H]4O)[C@@H](O)[C@H]3O)c(=O)[nH]c2=O)s1
remaining intact (HPLC; MOPS buffer, no enzyme; 24 h, pH 7.2, 37 °C): > 80%

N=C(N)NCCC[C@@H]1NC(=O)[C@H](CCCNC(=N)N)NC(=O)[C@@H](C(c2ccccc2)c2ccccc2)NC(=O)[C@H](Cc2c[nH]c3ccccc23)NC(=O)[C@@H](C(c2ccccc2)c2ccccc2)NC(=O)[C@@H](CCCNC(=N)N)NC(=O)[C@@H](CCCNC(=N)N)NC1=O
remaining peptide (LC-MS; human plasma; 6 h): 50.7%

CC[C@H](C)[C@@H](C(=O)N[C@@H](CC(C)C)C(=O)N[C@@H](CO)C(=O)N[C@@H](CO)C(=O)N[C@H](C(=O)N[C@@H](CCC(=O)O)C(=O)N[C@H](C(=O)NCC(=O)N[C@@H](CO)C(=O)N[C@@H](CO)C(=O)N[C@H](C(=O)N1CCC[C@H]1C(N)=O)[C@@H](C)O)C(C)C)[C@@H](C)O)N(C)C(=O)[C@H](C)NC(=O)CN(C)C(=O)[C@H](Cc1ccccc1)NC(=O)[C@H](CO)NC(=O)[C@H](CO)NC(=O)[C@H](CCCNC(=N)N)NC(=O)[C@H](CCC(N)=O)NC(=O)[C@H](CC(C)C)NC(=O)[C@H](Cc1ccccc1)NC(=O)[C@H](Cc1c[nH]cn1)NC(=O)[C@H](C)NC(=O)[C@H](CC(C)C)NC(=O)[C@H](CCCNC(=N)N)NC(=O)[C@H](CCC(=O)O)NC(=O)[C@@H](NC(=O)[C@H](C)NC(=O)[C@@H]1CSSC[C@H](NC(=O)[C@H](CCCNC(=N)N)NC(=O)CC[C@H](NC(=O)CCCCCCCCCCCCCCCCCCC(=O)O)C(=O)O)C(=O)NCC(=O)N[C@@H]([C@@H](C)O)C(=O)N[C@@H](C)C(=O)N[C@@H]([C@@H](C)O)C(=O)N1)[C@@H](C)O
remaining main peak (RP-HPLC; water; 7 days, pH 6.0, 40 °C): 88 area %

CC(C)(C)[C@H](NC(=O)C(F)F)C(=O)N1C[C@H]2[C@@H]([C@H]1C(=O)N[C@H](C#N)C[C@@H]1CCCNC1=O)C2(C)C
remaining compound (mouse liver microsomes; 60 min, added: NADPH): 7.6%

CC[C@H](C)[C@@H](C(=O)N[C@@H](CC(C)C)C(=O)N[C@@H](CO)C(=O)N[C@@H](CO)C(=O)N[C@H](C(=O)N[C@@H](CCC(=O)O)C(=O)N[C@H](C(=O)NCC(=O)N[C@@H](CO)C(=O)N[C@@H](CCCN)C(=O)N[C@H](C(=O)N1C[C@H](O)C[C@H]1C(N)=O)[C@@H](C)O)C(C)C)[C@@H](C)O)N(C)C(=O)[C@H](C)NC(=O)CN(C)C(=O)[C@H](Cc1ccccc1)NC(=O)[C@H](CO)NC(=O)[C@H](CO)NC(=O)[C@H](CCCNC(=N)N)NC(=O)[C@@H](NC(=O)[C@H](CC(C)C)NC(=O)[C@H](Cc1ccccc1)NC(=O)[C@H](Cc1c[nH]cn1)NC(=O)[C@H](C)NC(=O)[C@H](CC(C)C)NC(=O)[C@H](CCCNC(=N)N)NC(=O)[C@H](CCC(=O)O)NC(=O)[C@@H](NC(=O)[C@H](C)NC(=O)[C@@H]1CSSC[C@H](NC(=O)[C@H](CCCNC(=N)N)NC(=O)CC[C@H](NC(=O)CCCCCCCCCCCCCCCCCCC(=O)O)C(=O)O)C(=O)NCC(=O)N[C@@H]([C@@H](C)O)C(=O)N[C@@H](C)C(=O)N[C@@H]([C@@H](C)O)C(=O)N1)[C@@H](C)O)[C@@H](C)O
remaining main peak (RP-HPLC; water; 7 days, pH 6.0, 40 °C): 89 area %

C=CC(=O)Nc1cc(Nc2nccc(-c3cn(C)c4ccccc34)n2)c(OC)cc1N(C)CCNC
remaining amount (storage stability; human dried blood spot; 270 ng/mL, 5 h, -80 °C, HQC level): 94.1%

Cc1ccc(C(C)C)cc1.O=C(N=P12CN3CN(CN(C3)C1)C2)c1[c-]cccc1.[Cl-].[Ru+2]
remaining intact compound (DMSO-d6; 2 weeks): 27%

C[C@](C(=O)NC1CCC(F)(F)CC1)(c1cncnc1)N(C(=O)[C@H](F)Cl)c1ccc(OC(F)(F)F)cc1
remaining compound (mouse liver microsomes; concentration not given, 0.25 h, pH 7.4): 46.3%

CSCC[C@@H](N)C(=O)N[C@@H](CC(C)C)C(=O)N[C@@H](CCCNC(=N)N)C(=O)N[C@@H](Cc1c[nH]c2ccccc12)C(=O)N[C@@H](CO)C(=O)N[C@@H](CCCNC(=N)N)C(=O)N[C@@H](CCCCN)C(=O)N[C@@H](CCSC)C(=O)N1CCC[C@H]1C(=O)N[C@@H](CS)C(=O)N[C@H](C(=O)N[C@@H](CO)C(=O)O)C(C)C
remaining activity (12G5 competition, SUP-T1 cells; human plasma; 20 µM, 8 h, 37 °C): 34 ± 11%

CC[C@H](C)[C@@H](C(=O)N[C@@H](CC(C)C)C(=O)N[C@@H](CO)C(=O)N[C@@H](CO)C(=O)N[C@H](C(=O)N[C@@H](CCC(=O)O)C(=O)N[C@H](C(=O)NCC(=O)N[C@@H](CO)C(=O)N[C@@H](CC(N)=O)C(=O)N[C@H](C(=O)N1C[C@H](O)C[C@H]1C(N)=O)[C@@H](C)O)C(C)C)[C@@H](C)O)N(C)C(=O)[C@H](C)NC(=O)CN(C)C(=O)[C@H](Cc1ccccc1)NC(=O)[C@H](CO)NC(=O)[C@H](CO)NC(=O)[C@H](CCCNC(=N)N)NC(=O)[C@H](CCC(N)=O)NC(=O)[C@H](CC(C)C)NC(=O)[C@H](Cc1ccccc1)NC(=O)[C@H](CC(=O)O)NC(=O)[C@H](C)NC(=O)[C@H](CC(C)C)NC(=O)[C@H](CCCNC(=N)N)NC(=O)[C@H](CCC(N)=O)NC(=O)[C@@H](NC(=O)[C@H](C)NC(=O)[C@@H]1CSSC[C@H](NC(=O)[C@H](CCCNC(=N)N)NC(=O)CC[C@H](NC(=O)CCCCCCCCCCCCCCCCCCC(=O)O)C(=O)O)C(=O)N[C@@H](CC(N)=O)C(=O)N[C@@H]([C@@H](C)O)C(=O)N[C@@H](C)C(=O)N[C@@H]([C@@H](C)O)C(=O)N1)[C@@H](C)O
remaining main peak (RP-HPLC; water; 7 days, pH 7.5, 40 °C): 91 area %

CN(Cc1cc(C2CC2)on1)C(=O)c1cccc(-c2ccc(F)cc2)c1
remaining compound (human liver microsomes; 2 µM, 60 min, pH 7.5, without ABT): 57.6%

A few entries again:
O=C(NC1CCC(F)(F)CC1)C(c1cncnc1)N(C(=O)C(F)Cl)c1ccc(OC(F)(F)F)cc1 (stereo not shown)
remaining compound (human liver microsomes; concentration not given, 1 h, pH 7.4): 90.6%

CC[C@H](C)[C@@H](C(=O)N[C@@H](CC(C)C)C(=O)N[C@@H](CO)C(=O)N[C@@H](CO)C(=O)N[C@H](C(=O)N[C@@H](CCC(=O)O)C(=O)N[C@H](C(=O)NCC(=O)N[C@@H](CO)C(=O)N[C@@H](CC(N)=O)C(=O)N[C@H](C(=O)N1C[C@H](O)C[C@H]1C(N)=O)[C@@H](C)O)C(C)C)[C@@H](C)O)N(C)C(=O)[C@H](C)NC(=O)CN(C)C(=O)[C@H](Cc1ccccc1)NC(=O)[C@H](CO)NC(=O)[C@H](CO)NC(=O)[C@H](CCCNC(=N)N)NC(=O)[C@H](CCC(N)=O)NC(=O)[C@H](CC(C)C)NC(=O)[C@H](Cc1ccccc1)NC(=O)[C@H](CCCC(=O)O)NC(=O)[C@H](C)NC(=O)[C@H](CC(C)C)NC(=O)[C@H](CCCNC(=N)N)NC(=O)[C@H](CCC(=O)O)NC(=O)[C@@H](NC(=O)[C@H](C)NC(=O)[C@@H]1CSSC[C@H](NC(=O)[C@H](CCCNC(=N)N)NC(=O)CC[C@H](NC(=O)CCCCCCCCCCCCCCCCCCC(=O)O)C(=O)O)C(=O)NCC(=O)N[C@@H]([C@@H](C)O)C(=O)N[C@@H](C)C(=O)N[C@@H]([C@@H](C)O)C(=O)N1)[C@@H](C)O
remaining main peak (RP-HPLC; water; 7 days, pH 6.0, 40 °C): 97 area %
